{"data": "Measurements gathered from unrelated publications", "note": "Every numbered part comes from another study and shows a few of its results, in no order."}
{"data": "Block 1", "target": "Histone acetyltransferase KAT6A, winged helix 1, GST fusion (KAT6A, Homo sapiens, UniProt Q92794, residues 1-85)", "method": "protein binding microarray", "molecule type": "double-stranded DNA, one strand shown", "medium": "in vitro", "concentration": "not given", "setting": "8-mer, flanks averaged, mean of 2 arrays, mostly near background", "baseline": "not given", "reading": "higher = stronger binding", "Residues (chain)": "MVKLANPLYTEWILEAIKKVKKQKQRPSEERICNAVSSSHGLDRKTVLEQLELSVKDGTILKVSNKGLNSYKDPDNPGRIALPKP"}
{"Oligonucleotide": "TGAACGCA", "E-score": -0.198}
{"Oligonucleotide": "TAAAGACA", "E-score": -0.0551}
{"Oligonucleotide": "AGGTGGAT", "E-score": -0.212}
{"Oligonucleotide": "CGCAGCCA", "E-score": 0.0248}
{"Oligonucleotide": "TATATAGA", "E-score": -0.17}
{"Oligonucleotide": "CATGATCA", "E-score": -0.131}
{"Oligonucleotide": "ACGCGACC", "E-score": 0.267}
{"Oligonucleotide": "AATCAGAG", "E-score": -0.137}
{"Oligonucleotide": "CAGACCGA", "E-score": 0.044}
{"Oligonucleotide": "ATGCCACA", "E-score": -0.286}
{"Oligonucleotide": "CCCGAGCG", "E-score": 0.297}
{"Oligonucleotide": "GTGGAAAC", "E-score": -0.187}
{"Oligonucleotide": "GCGCCACC", "E-score": 0.298}
{"Oligonucleotide": "CTCTGGTC", "E-score": -0.0146}
{"Oligonucleotide": "ACTAGACA", "E-score": -0.153}
{"Oligonucleotide": "ACAGTTGG", "E-score": -0.0721}
{"Oligonucleotide": "GACATATC", "E-score": -0.0757}
{"Oligonucleotide": "AGCAATGG", "E-score": -0.183}
{"Oligonucleotide": "AAGTTTTA", "E-score": -0.0973}
{"Oligonucleotide": "CCGCAATA", "E-score": 0.182}
{"Oligonucleotide": "ACGTTAGA", "E-score": -0.0971}
{"Oligonucleotide": "CACTACAC", "E-score": 0.0087}
{"Oligonucleotide": "GTACGTTA", "E-score": 0.0807}
{"Oligonucleotide": "ACCACGCC", "E-score": 0.149}
{"Oligonucleotide": "CTAGTCAA", "E-score": -0.264}
{"data": "Block 2", "target": "RNA binding protein fox-1 homolog 2, RRM domain, GST-SBP tag (RBFOX2, Homo sapiens, UniProt O43251-10, residues 100-194)", "method": "RNA Bind-n-Seq", "molecule type": "RNA", "medium": "in vitro", "concentration": "365 nM", "setting": "natural RNA segment, single round, ends assumed", "baseline": "no-protein control", "reading": "higher = stronger binding", "Residues (chain)": "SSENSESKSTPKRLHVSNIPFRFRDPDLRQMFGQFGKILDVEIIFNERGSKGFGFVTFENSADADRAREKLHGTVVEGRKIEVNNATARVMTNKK"}
{"Oligonucleotide": "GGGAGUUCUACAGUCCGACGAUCUGACUGUGGGUGGACCAUCUCCCCUCUCCGAGCUGUAGACAAAGGAGCUUAGACGCCACAUCAGGGUAAUGAGGGGGAUCACGGAGAAUCAAAACCCUCAGAGGGUCCUGUGGAAUUCUCGGGUGCCAA", "RBNS enrichment (R)": 0.418}
{"Oligonucleotide": "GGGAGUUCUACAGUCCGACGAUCUGGUUAUCAGUUAAAUUGAGGUGGACAUUAUUUCCCCAAUUUCACAACAGGAUUCACAUUGUUAAUUUAUAAAUCUAGACUUGGAGAAUUAAGGACUGAGAAAUGACCAUUGGAAUUCUCGGGUGCCAA", "RBNS enrichment (R)": 0.442}
{"Oligonucleotide": "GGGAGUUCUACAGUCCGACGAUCUUCAGUUAUGGUAAACUCUUAAAGUUCAGAACACUCAACAGAUUCCUUCAGUGAUAUACUUGUUCGUUCAUUUCUAAAAUGUGAAGCUUUAGGACCAAAUUGUUAGAAAGUGGAAUUCUCGGGUGCCAA", "RBNS enrichment (R)": 0.434}
{"Oligonucleotide": "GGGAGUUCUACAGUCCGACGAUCGUGCCACGAGUGUUGAACCUCAUCCCUUCCUGUGUCCUGGGCUGAGUGACCAGGUCAGUGGCCCUGCCCGUGAAGGCUGGCGAUUAACUGUGGCAGCAGACAUGUCCUGUUGGAAUUCUCGGGUGCCAA", "RBNS enrichment (R)": 0.314}
{"Oligonucleotide": "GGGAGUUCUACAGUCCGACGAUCUCUAAGGGAAGAGUCUGGCCUGCUCUCUGACUUGCACCUUCCUCGCCCUUAGAAGCAGGGAUUGCAAAGCUUAGGGCCCCCGUGCCAAGCAAAGACCAAAGAUGCAUCAGUGGAAUUCUCGGGUGCCAA", "RBNS enrichment (R)": 0.303}
{"Oligonucleotide": "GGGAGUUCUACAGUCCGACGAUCUCACAAGAACAGCACAGGAAAGUUCUGCCCCCGUGAUUCAAUUACCUCCCACUUGGUCCCACCCACGACACGUGGGAAUUGUGGGAGCUACAAUUCAAGAUGAGAUUUGGUGGAAUUCUCGGGUGCCAA", "RBNS enrichment (R)": 0.813}
{"Oligonucleotide": "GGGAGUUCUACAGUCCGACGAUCUCUACCGCAGGCGUCCAGCCAGGAAAGAGCGACCCCCCUCUUGGACUGUCUUCUGGGCCCUUCCAAGCCCAUCUGUGGAGUCGCCUCCCUCCUUCCCCCCACCCCCGUGUUGGAAUUCUCGGGUGCCAA", "RBNS enrichment (R)": 0.422}
{"Oligonucleotide": "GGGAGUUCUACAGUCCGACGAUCUCCUUUGUGUUCAACAGUUAAUCAAAACCAGAGAGUCUAGGGCAGCCUCUCUGAUGUUGUCAAUGAUGUAAAUUCAGUCCCUGGUUUUUAAUUUUCUGUCUGAUGUCACAUGGAAUUCUCGGGUGCCAA", "RBNS enrichment (R)": 0.385}
{"data": "Block 3", "target": "Sal-like protein 4, full length isoform B (SALL4, Homo sapiens, UniProt Q9UJQ4-2, residues 1-616)", "method": "universal PBM", "molecule type": "double-stranded DNA, one strand shown", "medium": "in vitro", "concentration": "not given", "setting": "8-mer, flanks averaged, mean of replicates", "reading": "higher = stronger binding", "Residues (chain)": "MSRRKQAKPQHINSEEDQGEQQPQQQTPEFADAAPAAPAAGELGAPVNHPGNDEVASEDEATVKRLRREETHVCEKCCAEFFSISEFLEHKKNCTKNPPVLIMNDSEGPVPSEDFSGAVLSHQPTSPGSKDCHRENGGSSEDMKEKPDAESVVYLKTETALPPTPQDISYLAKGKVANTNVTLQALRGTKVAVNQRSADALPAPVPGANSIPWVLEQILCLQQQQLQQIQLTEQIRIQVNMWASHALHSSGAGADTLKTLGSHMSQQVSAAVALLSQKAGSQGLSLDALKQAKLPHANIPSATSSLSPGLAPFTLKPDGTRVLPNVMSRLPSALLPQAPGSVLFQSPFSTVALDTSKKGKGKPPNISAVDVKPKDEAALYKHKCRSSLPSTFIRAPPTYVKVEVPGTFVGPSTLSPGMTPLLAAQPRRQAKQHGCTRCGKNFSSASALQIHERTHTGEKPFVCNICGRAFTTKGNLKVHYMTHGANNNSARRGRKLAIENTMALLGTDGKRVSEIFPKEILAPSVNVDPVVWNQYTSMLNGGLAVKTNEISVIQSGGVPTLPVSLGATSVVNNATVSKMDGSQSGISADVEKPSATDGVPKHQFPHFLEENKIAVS"}
{"Oligonucleotide": "GCATTTCC", "E-score": 0.00023}
{"Oligonucleotide": "GGAAAACA", "E-score": 0.167}
{"Oligonucleotide": "CAAGTCGA", "E-score": 0.00763}
{"Oligonucleotide": "ACCACTAC", "E-score": -0.0597}
{"Oligonucleotide": "CCACTCCC", "E-score": -0.188}
{"Oligonucleotide": "ACCGCCAT", "E-score": -0.106}
{"Oligonucleotide": "AGCCTTCA", "E-score": -0.0176}
{"Oligonucleotide": "AATATCGT", "E-score": 0.334}
{"Oligonucleotide": "CCGATTCA", "E-score": 0.078}
{"Oligonucleotide": "ACATAGCC", "E-score": -0.0532}
{"Oligonucleotide": "AAGGAGGG", "E-score": -0.192}
{"Oligonucleotide": "CAGTGCGC", "E-score": -0.26}
{"Oligonucleotide": "AAATAAGG", "E-score": 0.105}
{"Oligonucleotide": "GGTATAAA", "E-score": 0.218}
{"Oligonucleotide": "CTGGGCCA", "E-score": -0.222}
{"Oligonucleotide": "AAGTTAAA", "E-score": 0.208}
{"Oligonucleotide": "ATAGTCGA", "E-score": 0.0912}
{"Oligonucleotide": "CCAGGCGC", "E-score": -0.323}
{"Oligonucleotide": "CCTTACTA", "E-score": 0.149}
{"Oligonucleotide": "AGCTAGAA", "E-score": -0.0613}
{"data": "Block 4", "target": "RING finger protein unkempt homolog, zinc fingers 1-6, GST-SBP tag (UNK, Homo sapiens, UniProt Q9C0B0, residues 30-357)", "method": "RNA Bind-n-Seq", "molecule type": "RNA", "medium": "in vitro", "concentration": "not given", "setting": "RNA with constant flanks, ends assumed", "baseline": "input RNA pool", "reading": "higher = stronger binding", "Target sequence (chain)": "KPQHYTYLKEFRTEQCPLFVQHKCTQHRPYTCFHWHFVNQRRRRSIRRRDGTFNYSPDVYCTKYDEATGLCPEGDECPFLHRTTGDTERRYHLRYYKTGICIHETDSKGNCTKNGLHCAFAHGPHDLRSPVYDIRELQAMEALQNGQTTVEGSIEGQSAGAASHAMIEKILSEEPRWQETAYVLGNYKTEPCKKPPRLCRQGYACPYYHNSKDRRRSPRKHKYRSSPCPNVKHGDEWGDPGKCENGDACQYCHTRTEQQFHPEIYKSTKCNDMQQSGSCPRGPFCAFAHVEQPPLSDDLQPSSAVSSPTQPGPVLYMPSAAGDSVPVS"}
{"Oligonucleotide": "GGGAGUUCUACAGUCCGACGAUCUAAGAGAACAGCCAGAUGGUUUAUAUGAAUAAUCUUUAUCUGCAGGAUGGUGGAUUGGUAAAUCCGGAGAAUGUUGUUUGAGAUAUCAAGAUUUAUGUCUGGGAACUAAAAUAUAUAAUGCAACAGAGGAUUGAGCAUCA", "bound/input enrichment": "0.338 ratio"}
{"Oligonucleotide": "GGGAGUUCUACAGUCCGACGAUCUGAAAAUGGCUUCUGCUCCAUUAAAAAGUAAAAAUUGUCCUCCAAAUAUAAAACUCCUUAACCGAUAUUUUUGAAAUUAAAAUCUUUAAAUUUUAUAAAUCAGCUGUUGCCACUACACAACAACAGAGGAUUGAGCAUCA", "bound/input enrichment": "4.85 ratio"}
{"Oligonucleotide": "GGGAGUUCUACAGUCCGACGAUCGAUUAUGUGCCUGCCUUAAAAGGUUUGGGUGAGUGCCACCUGUUGCUGGGGAAGGUGGCCUCCGUGGAUUUUCUGGAUGGAAAAGCUGUGGACUAUGUGGAACAAGCGCUGGGAUAUUUCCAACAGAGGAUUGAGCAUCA", "bound/input enrichment": "1.01 ratio"}
{"Oligonucleotide": "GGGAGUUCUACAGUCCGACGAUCGCUAGUUCUAGUUAGUCUAUAUUGUUUGUUUUUUCAGUCUUCUUUUUCUAGCAUGCUUUACACCGGAGAGAAUAAAGGGCUAUUUAAUAAGCAAUCCGGAUCUCAGAGAACAUAGUAAUACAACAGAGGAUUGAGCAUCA", "bound/input enrichment": "7.14 ratio"}
{"Oligonucleotide": "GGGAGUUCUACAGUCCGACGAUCGAUUACAAGGGGCAGAAACUAGCUGAACAGAUGUUUCAGGGGAUCAUUCUUUUUUCUGCAACCGUUGGGUUUAUCUACGGGUACGUGGCUGAACAGUUUGGGUGGACUGUCUACAUAGUUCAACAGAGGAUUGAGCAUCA", "bound/input enrichment": "0.467 ratio"}
{"Oligonucleotide": "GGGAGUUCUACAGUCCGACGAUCGAAAAGAGUGGAAAACAAGGCUCUCCAGACCAAGUAAGUCCAGUUUCUGAAAUGACUUCUACCCGUCUUUACCAAGACAAACAGGAAGGGAAAAGCACAGACUUUGCACCAAUAAAAGAACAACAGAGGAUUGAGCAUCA", "bound/input enrichment": "0.274 ratio"}
{"Oligonucleotide": "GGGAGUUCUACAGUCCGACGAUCAUGCGUGCUGCUGGAAGGCUCUCCGUUUCUCCGAGAACCGGGAAGGACGUUGGUGCCGAGGACAUUGGCUACCAUGAGUUCCGGUGCGCUGUUGCCCAAACCACAGAUGCGUGGUCUUCUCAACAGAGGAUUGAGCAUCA", "bound/input enrichment": "0.0541 ratio"}
{"Oligonucleotide": "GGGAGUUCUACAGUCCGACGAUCGCCACAUUUGCUAUUUCCAUCCUGCAACAGUUGGAGAUUGAGUUCAAGGAGACCCAAGCACCCGUAUUGGCCCCCACCAGAGAACUGGCUCAACAGAUCCAAAAGGUAAUUCUGGCACUUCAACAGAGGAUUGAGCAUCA", "bound/input enrichment": "0.2 ratio"}
